Measured values pooled from the literature.
A part holds a random share of what one study measured. Positions count from the first letter of the parent shown.

Sample 1 — target: CCNA1, cyclin fold, Cln2 fusion (human); technique: yeast growth competition, sequencing; matrix: yeast; setting: weak parent motif; baseline: not given; reading: higher = stronger binding
Starting sequence: INSM1 docking peptide (human); PKAIRKLHFEDEV
Variant | normalised enrichment score
PKAIRDLHFEDEV [K6D] | 0.0639
PKVIRKLHFEDEV [A3V] | 0.934
PKAIRKLHFHDEV [E10H] | 0.177
PKAIRELHFEDEV [K6E] | 0.487
PKAIRKLHDEDEV [F9D] | -0.0499
PKASRKLHFEDEV [I4S] | 0.644
PKAIMKLHFEDEV [R5M] | 0.273
PKAFRKLHFEDEV [I4F] | 0.576
PKAIRKLMFEDEV [H8M] | 0.261
PKAIRKLHIEDEV [F9I] | -0.447
PKAIRKDHFEDEV [L7D] | -0.143
PKAIRKLDFEDEV [H8D] | 0.434
PKAIRKVHFEDEV [L7V] | 0.339
PKAICKLHFEDEV [R5C] | -0.128
PKAIRKLHFEDMV [E12M] | 0.806
PKAIRKLHFCDEV [E10C] | 0.408
PYAIRKLHFEDEV [K2Y] | 0.156
PKAWRKLHFEDEV [I4W] | 0.507
PRAIRKLHFEDEV [K2R] | 0.669
PKAIRKLHPEDEV [F9P] | 0.29
PKAIRKLHFVDEV [E10V] | 0.105
PKAIRKLHFEDLV [E12L] | 0.818
PKAIRKLHVEDEV [F9V] | 0.00675
PKAIRTLHFEDEV [K6T] | 0.16
PKAIRKLHFEVEV [D11V] | 0.211

Sample 2 — technique: universal PBM; form: double-stranded DNA, one strand shown; matrix: in vitro; concentration: 600 nM; reading: higher = stronger binding
Target: Sal-like protein 4, full length isoform A (SALL4, Homo sapiens, UniProt Q9UJQ4, residues 1-1053)
Chain of UniProt Q9UJQ4 (whole entry, looked up): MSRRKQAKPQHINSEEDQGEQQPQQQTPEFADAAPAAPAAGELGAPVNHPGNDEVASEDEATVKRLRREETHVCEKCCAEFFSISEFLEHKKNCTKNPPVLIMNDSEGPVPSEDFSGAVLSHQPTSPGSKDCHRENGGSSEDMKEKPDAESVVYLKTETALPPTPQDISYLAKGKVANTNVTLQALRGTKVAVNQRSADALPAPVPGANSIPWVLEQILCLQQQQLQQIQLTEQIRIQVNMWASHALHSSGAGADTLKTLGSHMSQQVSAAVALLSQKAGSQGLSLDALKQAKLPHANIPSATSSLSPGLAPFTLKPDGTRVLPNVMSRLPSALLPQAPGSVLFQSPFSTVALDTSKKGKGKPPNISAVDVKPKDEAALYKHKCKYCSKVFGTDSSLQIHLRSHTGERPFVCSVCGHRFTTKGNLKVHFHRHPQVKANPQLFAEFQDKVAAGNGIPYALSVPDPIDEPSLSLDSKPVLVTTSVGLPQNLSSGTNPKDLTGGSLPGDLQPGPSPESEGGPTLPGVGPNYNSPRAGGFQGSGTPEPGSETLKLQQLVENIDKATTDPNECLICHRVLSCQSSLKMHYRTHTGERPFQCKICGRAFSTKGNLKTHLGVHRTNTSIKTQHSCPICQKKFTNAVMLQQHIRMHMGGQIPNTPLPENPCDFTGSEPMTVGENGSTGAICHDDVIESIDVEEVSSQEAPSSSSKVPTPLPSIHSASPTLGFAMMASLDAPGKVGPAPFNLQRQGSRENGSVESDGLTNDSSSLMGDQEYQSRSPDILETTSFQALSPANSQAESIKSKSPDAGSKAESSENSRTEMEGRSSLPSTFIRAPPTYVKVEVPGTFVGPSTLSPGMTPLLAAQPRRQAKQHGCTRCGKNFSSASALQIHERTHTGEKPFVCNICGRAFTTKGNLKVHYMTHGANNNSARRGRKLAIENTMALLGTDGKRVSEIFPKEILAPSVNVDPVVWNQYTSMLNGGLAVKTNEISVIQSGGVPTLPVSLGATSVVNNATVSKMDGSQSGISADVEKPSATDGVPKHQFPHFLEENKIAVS
Setting: 8-mer, flanks averaged, mean of replicates
Oligonucleotide | E-score
ATTATGCG | 0.281
GGCCAGCC | -0.41
CTACGCAA | -0.046
AGAGTCAA | 0.0291
ACCAAGCC | -0.13
AAGAAGGC | -0.00979
GGGAAAAC | 0.00723
GTGACGCA | -0.172
CTCGGGGA | -0.278
GTTGTTCA | 0.0535
AAGTGGAT | 0.00142
GCAACGCC | -0.282
CTATGAAG | 0.16
TGCTCCAA | -0.0264
CACCGTCA | -0.071
CGGTCTTC | -0.265
AGCTGGCA | -0.266
CAAGAGTC | -0.0195
AACGATCC | -0.131
ACCAGCTG | -0.283
AATAACGA | 0.275

Sample 3 — technique: DHFR PCA, deep sequencing; matrix: yeast; together with: (+)-ABA 710 µM; baseline: wild-type fitted maximum; reading: higher = stronger binding
Target: ABI1, truncated, D143A, DHFR fusion (Arabidopsis thaliana)
Setting: methotrexate growth selection, single substitutions
Starting sequence: PYL1, truncated, DHFR fusion (Arabidopsis thaliana); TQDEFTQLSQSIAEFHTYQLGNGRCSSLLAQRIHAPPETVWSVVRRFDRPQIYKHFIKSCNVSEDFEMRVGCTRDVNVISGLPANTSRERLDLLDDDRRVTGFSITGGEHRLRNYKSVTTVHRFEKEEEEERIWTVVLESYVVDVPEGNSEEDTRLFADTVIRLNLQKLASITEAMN
Variant | relative binding score [%]
R123K | 113
D97R | 106
D48C | 74
V40F | -53.3
E127C | 104
S104R | 82.8
F15P | 40.6
M68I | 103
S63A | 106
Q10C | 105
F47M | 1.54
E4Y | 98.7
A13I | 97.2
R46P | 63.7
E174D | 95.2
C72E | 99.9
R98T | 107
D95G | 35.9
R88N | 103
E38S | 98
P36M | 93.8
L156K | 91
D3Y | 100
V44W | -14.8

Sample 4 — technique: aptamer microarray, sandwich; form: DNA with 2'F-ANA; matrix: in vitro; concentration: 200 nM; together with: Cy3 exosite-II aptamer, 400 nM; reading: higher = stronger binding; oligonucleotide: GGTTGGTGTGGTTGG
Target: Prothrombin, mature alpha-thrombin (F2, Homo sapiens, UniProt P00734)
Setting: whole 15-mer aptamer, many near background
Modification | mean fluorescence intensity [a.u.]
2'F-ANA at 3 4 5 7 8 9 10 11 | 107
2'F-ANA at 1 3 4 6 9 10 14 15 | 54.8
2'F-ANA at 1 5 6 10 11 14 15 | 63.2
2'F-ANA at 1 2 3 4 6 10 11 13 14 | 51.9
2'F-ANA at 2 15 | 466
2'F-ANA at 4 5 6 11 12 15 | 95.4
2'F-ANA at 1 2 4 5 6 8 10 13 14 15 | 50.2
2'F-ANA at 1 2 3 6 8 9 11 12 14 15 | 119
2'F-ANA at 1 2 6 7 11 12 13 | 176
2'F-ANA at 2 8 9 10 11 13 | 120
2'F-ANA at 1 3 4 5 6 7 8 9 10 11 14 15 | 48.2
2'F-ANA at 2 3 4 5 9 11 12 13 15 | 494
2'F-ANA at 1 3 4 5 6 8 11 13 14 15 | 88.2
2'F-ANA at 1 2 4 7 9 12 | 325
2'F-ANA at 1 4 5 9 11 12 13 14 15 | 47.8
2'F-ANA at 2 6 8 9 11 12 14 | 145
2'F-ANA at 1 3 4 5 6 7 9 11 12 14 | 114
2'F-ANA at 1 6 8 10 12 13 15 | 202
2'F-ANA at 3 9 11 12 14 15 | 615
2'F-ANA at 2 6 7 8 9 11 12 | 590
2'F-ANA at 1 6 9 13 15 | 122
2'F-ANA at 4 5 7 9 10 12 13 15 | 47.2
2'F-ANA at 1 2 3 4 5 8 10 11 13 14 | 141
2'F-ANA at 1 4 6 7 8 10 11 14 15 | 51.9

Further values, each from its own experiment
Molecule | target | test | test system | conditions | scale | measurement | result
PhoQ, residues 284 288 289 292 302 303 NLSRDF | PhoP, residues 12 14 15 18 19 VQALL (Escherichia coli, UniProt P23836) | Sort-seq, refers to: YFP reporter | E. coli | PhoQ-PhoP variant library, together with: 10 µM Mg2+ | baseline: high Mg2+ state, higher = stronger signaling | fold induction | 14.1

Repeated from above (sample 3):
Variant | relative binding score [%]
S104R | 82.8
F15P | 40.6
M68I | 103
S63A | 106
Q10C | 105
F47M | 1.54
E4Y | 98.7
A13I | 97.2
R46P | 63.7
E174D | 95.2
C72E | 99.9
R98T | 107
